Measurements from different studies.
Every numbered part comes from another study and shows a few of its results, in no order.

Series 1 — method: protein-binding microarray; molecule type: double-stranded DNA, one strand shown; sample: in vitro; concentration: 250 nM; notes: 60-bp whole probe; added: salmon DNA 0.4 mg/ml; reference: random background probes; reading: higher = stronger binding; constant ends, left off below: GCCTAGCAC … GTCTTGATTCGCTTGACGCTGCTG
Target: Interferon regulatory factor 7, full length, phosphomimetic (IRF7, Homo sapiens, UniProt Q92985, residues 1-503, S101K/S471D/S472D/S475D/S476D/S477D/S483D/S484D/S487D)
Chain of UniProt Q92985 (whole entry, unmodified, looked up): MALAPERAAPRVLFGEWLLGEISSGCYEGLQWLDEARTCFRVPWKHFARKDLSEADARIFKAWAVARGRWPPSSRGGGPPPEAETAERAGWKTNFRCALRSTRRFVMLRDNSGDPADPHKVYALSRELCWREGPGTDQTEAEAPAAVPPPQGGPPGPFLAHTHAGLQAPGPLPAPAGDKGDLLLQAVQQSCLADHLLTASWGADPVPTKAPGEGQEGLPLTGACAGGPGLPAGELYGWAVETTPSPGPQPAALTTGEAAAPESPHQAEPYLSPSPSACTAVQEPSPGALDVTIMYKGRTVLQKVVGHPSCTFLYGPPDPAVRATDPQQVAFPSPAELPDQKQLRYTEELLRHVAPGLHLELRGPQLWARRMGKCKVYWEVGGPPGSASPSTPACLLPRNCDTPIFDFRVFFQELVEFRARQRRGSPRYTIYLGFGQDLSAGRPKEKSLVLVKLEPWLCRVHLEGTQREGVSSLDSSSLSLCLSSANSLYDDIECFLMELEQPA
| Strand | log fluorescence [z-score] |
| --- | --- |
| GACGGTATCCTTCTCCTGTCGTGCTAG | 0.538 |
| GACGGACTGGGTCTCGGGACGTGCTAG | -0.329 |
| TTAGGTTTCCTTATCCCTTAGTGCTAG | 2.61 |
| GACGGTCTCGGTCTCCGGACGTGCTAG | 1.15 |
| GACGGTCTCCTGTTCCTGACGTGCTAG | 0.119 |
| TGGGATTTTGTCCTCCCCTCGTGCTAG | -0.119 |
| TCCTCTTTCACTGGTCCTCATGTGCTA | 1.65 |
| TTGGGACTGGACACTGGGTTAGTGCTA | -0.75 |
| GATGGACTGGACACTGGGGACGTGCTA | -0.773 |
| GACGATTCCAGTTTCTAGACGTGCTAG | 1.64 |
| TCAGCTTTCCTGATGACACTGTGCTAG | 0.304 |
| GACGGTATCGCGACTGGGGACGTGCTA | -0.389 |
| GACTATATCGGGTTTCGAGACGTGCTA | 3.16 |
| GACGAACTGAGACTGGAGTCGTGCTAG | -0.135 |
| GACGGTATCCTACTGCTGAAGTGCTAG | -0.394 |
| CTAGAACTGAGTTTCGATTAGTGCTAG | 8.21 |
| GACGGTTTCGGGTATCGGAACGTGCTA | 8.16 |
| TTAGAACTGAGTATCTATTAGTGCTAG | -0.0222 |
| GAAGGTTTCCTTTTCCTGACGTGCTAG | 6.73 |

Series 2 — method: aptamer microarray, sandwich; molecule type: DNA with 2'F-ANA; sample: in vitro; concentration: 200 nM; added: Cy3 exosite-II aptamer, 400 nM; reading: higher = stronger binding; strand: GGTTGGTGTGGTTGG
Target: Prothrombin, mature alpha-thrombin (F2, Homo sapiens, UniProt P00734)
Notes: whole 15-mer aptamer, many near background
| Modification | mean fluorescence intensity |
| --- | --- |
| 2'F-ANA at 1 4 5 7 8 9 12 | 124 a.u. |
| 2'F-ANA at 1 3 4 5 7 12 13 15 | 78.2 a.u. |
| 2'F-ANA at 2 4 7 8 10 11 14 15 | 61.5 a.u. |
| 2'F-ANA at 2 6 7 8 9 12 | 693 a.u. |
| 2'F-ANA at 1 2 3 4 6 7 9 10 11 13 | 87.3 a.u. |
| 2'F-ANA at 1 2 5 6 10 11 12 13 14 15 | 46.2 a.u. |
| 2'F-ANA at 2 3 7 8 11 12 13 14 | 539 a.u. |
| 2'F-ANA at 1 2 3 6 8 9 12 13 14 | 79.5 a.u. |
| 2'F-ANA at 4 5 7 8 9 11 14 15 | 43.7 a.u. |
| 2'F-ANA at 1 2 6 7 8 9 10 11 15 | 54.5 a.u. |
| 2'F-ANA at 2 5 6 7 9 11 13 14 15 | 46.6 a.u. |
| 2'F-ANA at 1 3 6 7 10 11 13 14 | 57.4 a.u. |
| 2'F-ANA at 1 2 4 5 7 8 9 10 11 13 15 | 87.4 a.u. |
| 2'F-ANA at 1 2 3 4 5 6 7 8 10 12 14 | 52.1 a.u. |
| 2'F-ANA at 2 3 8 11 12 | 990 a.u. |
| 2'F-ANA at 7 8 9 10 11 15 | 162 a.u. |

Series 3 — method: protein binding microarray; molecule type: double-stranded DNA, one strand shown; sample: in vitro; concentration: not given; reference: not given; reading: higher = stronger binding
Target: Histone acetyltransferase KAT6A, both winged helices, GST fusion (KAT6A, Homo sapiens, UniProt Q92794, residues 1-181)
Notes: 8-mer, flanks averaged, mean of 2 arrays, mostly near background
Target sequence (chain): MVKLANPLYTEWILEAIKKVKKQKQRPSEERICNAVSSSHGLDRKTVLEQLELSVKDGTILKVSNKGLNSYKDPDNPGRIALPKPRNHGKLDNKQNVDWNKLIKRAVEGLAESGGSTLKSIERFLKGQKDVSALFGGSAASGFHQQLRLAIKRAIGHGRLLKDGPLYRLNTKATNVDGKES
| Strand | E-score |
| --- | --- |
| CAACGAGG | -0.0761 |
| ACCTAAAC | -0.105 |
| CCCTCTAG | -0.256 |
| AGCAAATC | -0.06 |
| GATGTCGA | 0.0212 |
| TGATTACA | -0.112 |
| AGGCTGCA | -0.276 |
| GATACCGC | 0.27 |
| AATTGCTA | -0.0414 |
| ATATGATG | -0.133 |
| GCAATATA | -0.108 |
| CCACCAAA | -0.236 |
| ACCTGAAT | -0.0595 |
| GGGAAGAC | 0.104 |
| ATGAATCG | 0.0109 |
| GGGCACAA | -0.0291 |
| GAAACCGC | 0.246 |
| ATGTAGTC | -0.0584 |
| CGGGGGTC | 0.224 |
| CTATTTTA | 0.0164 |

Series 4 — method: competition protein-binding microarray; molecule type: double-stranded DNA, one strand shown; sample: in vitro; concentration: 2 µM; added: Pho4 competitor, 0.05 µM; reading: higher = stronger binding; constant ends, left off below: … GTCTTGATTCGCTTGACGCTGCTG
Target: Centromere-binding protein 1, full length, His-tagged (CBF1, Saccharomyces cerevisiae, UniProt P17106, residues 1-351)
Chain of UniProt P17106 (whole entry, looked up): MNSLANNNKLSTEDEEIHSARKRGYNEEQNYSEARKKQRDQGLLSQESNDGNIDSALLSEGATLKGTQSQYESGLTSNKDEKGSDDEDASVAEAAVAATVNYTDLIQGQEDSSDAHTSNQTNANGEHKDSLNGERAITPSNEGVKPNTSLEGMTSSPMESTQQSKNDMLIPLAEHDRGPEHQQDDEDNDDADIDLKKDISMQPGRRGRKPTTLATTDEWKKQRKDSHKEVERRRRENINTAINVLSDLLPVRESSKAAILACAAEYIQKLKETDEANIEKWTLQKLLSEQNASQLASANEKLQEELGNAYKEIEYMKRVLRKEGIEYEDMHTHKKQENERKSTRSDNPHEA
Notes: whole 60-bp probe, lowest competitor level
| Strand | fluorescence intensity [a.u.] |
| --- | --- |
| AAAGCGGTAATTTGAACCGTGGGTGCAGATATCTAT | 62.6 |
| GTCGAAAAACCTCCGCACGGCAGAAGTGTTATGCTG | 72.5 |
| AAGGCAACAAGCCGACACGTGGAGGAAAGCCAGGAG | 537 |
| CACTTCCTGGGCATCCACATGCGAAGTTGAGCTAAA | 70.7 |
| CTTTCCCGATCTTTTCACGTGGTCTTAGCACATTTG | 1360 |
| CTTCTGTAAATTTGTTACGTGGGTGGACGCGCCCCG | 74.3 |
| AACTATGAGTACAGGCATGTGATGTTACCTAAGGCC | 393 |
| GACTTGGCCTAGTTCCACATGTTTTTCATCATCCAG | 92.7 |
| GTCTTGTCTCATTTTCACGTGATTTTCCCCACTTCA | 2430 |
| CGGGGTTAAGTTTGTCACGGTACTTGCTTGCAGCAG | 192 |
| AGCTCCTGCACTTTGCACGTGGCCGAGCCATCGCCC | 841 |
| CTCTTCCTGAATTTGCACGGGGAACCAAGGCCTATC | 85.4 |
| TTAGAGTAGGGAGAGAATGTGACGAAGCCCTTTGTG | 70.5 |
| CTTTCCCGATCTTTTCACGTGTTTTTAGCACATTTG | 1130 |
| CTAACGAAGGTTTGCAAGGTGGGTGACAAGCCAAGT | 69.6 |
| AAATTACTAAGTTGGGTCGTGGGTGACGCCGTATGA | 62.9 |
| AGGACCCTCTCTCAACATGTGGGTAATGCGAATCAA | 80.9 |
| AAAGCGGTAATTTGATTGGTGGGTGCAGATATCTAT | 73.3 |
| ATCTGGAAACTCCGACGCGTGAGGCCTCGCGTCGCT | 69.1 |

Excerpt of the above (series 2):
| Modification | mean fluorescence intensity |
| --- | --- |
| 2'F-ANA at 2 6 7 8 9 12 | 693 a.u. |
| 2'F-ANA at 2 3 7 8 11 12 13 14 | 539 a.u. |
| 2'F-ANA at 1 2 5 6 10 11 12 13 14 15 | 46.2 a.u. |
| 2'F-ANA at 2 5 6 7 9 11 13 14 15 | 46.6 a.u. |
| 2'F-ANA at 1 2 6 7 8 9 10 11 15 | 54.5 a.u. |
